Published values pooled from the literature.
Every numbered part comes from another study and shows a few of its results, in no order.

Sample 1
Target: Histone acetyltransferase KAT6A, winged helix 1, GST fusion (KAT6A, Homo sapiens, UniProt Q92794, residues 1-85)
Method: protein binding microarray
Form: double-stranded DNA, one strand shown
Matrix: in vitro
Concentration: not given
Setting: 8-mer, flanks averaged, mean of 2 arrays, mostly near background
Reference: not given
Direction: higher = stronger binding
Residues (chain): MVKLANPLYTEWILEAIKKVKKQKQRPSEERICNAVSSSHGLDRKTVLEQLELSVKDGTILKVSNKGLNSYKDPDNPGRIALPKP
| Strand | E-score |
| --- | --- |
| CGCACTGC | 0.263 |
| ATTAAAAG | 0.0114 |
| AGTAACAT | 0.0677 |
| AAGATGGG | -0.0964 |
| GGGGCAAC | -0.114 |
| GTGATTCA | -0.232 |
| CCGACAAA | 0.0442 |

Sample 2
Target: Interferon regulatory factor 3, full length, phosphomimetic (IRF3, Homo sapiens, UniProt Q14653, residues 1-427, S386D/S396D/S398D/S402D/T404D/S405D)
Chain of UniProt Q14653 (whole entry, unmodified, looked up): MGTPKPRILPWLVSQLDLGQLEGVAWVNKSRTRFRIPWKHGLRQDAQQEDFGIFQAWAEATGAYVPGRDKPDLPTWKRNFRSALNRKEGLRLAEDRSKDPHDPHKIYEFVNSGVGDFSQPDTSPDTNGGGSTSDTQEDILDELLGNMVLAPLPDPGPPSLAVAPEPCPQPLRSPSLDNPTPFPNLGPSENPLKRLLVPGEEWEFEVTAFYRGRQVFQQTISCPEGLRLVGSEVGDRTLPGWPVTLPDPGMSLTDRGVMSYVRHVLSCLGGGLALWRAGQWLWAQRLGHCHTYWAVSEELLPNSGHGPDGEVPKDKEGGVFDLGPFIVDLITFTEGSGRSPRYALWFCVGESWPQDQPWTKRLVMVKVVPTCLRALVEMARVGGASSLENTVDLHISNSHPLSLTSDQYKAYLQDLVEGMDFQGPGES
Method: protein-binding microarray
Form: double-stranded DNA, one strand shown
Matrix: in vitro
Concentration: 2540 nM top
Setting: 60-bp whole probe
Together with: salmon DNA 0.4 mg/ml
Reference: random background probes
Direction: higher = stronger binding
All sequences stand within: GCCTAGCAC … GTCTTGATTCGCTTGACGCTGCTG
| Strand | fitted relative affinity |
| --- | --- |
| GCATTTTTTTTTTCTACTTCGTGCTAG | 1.43 z-score |
| GTGTTTTGCCCTATTTAAGAGTGCTAG | 1.28 z-score |
| TTAAATTTCGGGACTGGATTAGTGCTA | 1.33 z-score |
| TTAGGTCTCCTTTTCCTTTCGTGCTAG | 5.4 z-score |
| GACGGGCTGGGGTATCGGGACGTGCTA | -0.869 z-score |
| GGTGGTGATGGTGAGTAAGAGTGCTAG | -1.19 z-score |
| GACGGTTTCGACTATTGGGACGTGCTA | 2.69 z-score |
| CTTGCTTTTTAGATCGTCCCGTGCTAG | 1.19 z-score |
| TCACTTCACCTCTCTGTCACTGTGCTA | 0.719 z-score |

Sample 3
Target: RING finger protein unkempt homolog, zinc fingers 1-6, GST-SBP tag (UNK, Homo sapiens, UniProt Q9C0B0, residues 30-357)
Chain of UniProt Q9C0B0 (30-357, looked up): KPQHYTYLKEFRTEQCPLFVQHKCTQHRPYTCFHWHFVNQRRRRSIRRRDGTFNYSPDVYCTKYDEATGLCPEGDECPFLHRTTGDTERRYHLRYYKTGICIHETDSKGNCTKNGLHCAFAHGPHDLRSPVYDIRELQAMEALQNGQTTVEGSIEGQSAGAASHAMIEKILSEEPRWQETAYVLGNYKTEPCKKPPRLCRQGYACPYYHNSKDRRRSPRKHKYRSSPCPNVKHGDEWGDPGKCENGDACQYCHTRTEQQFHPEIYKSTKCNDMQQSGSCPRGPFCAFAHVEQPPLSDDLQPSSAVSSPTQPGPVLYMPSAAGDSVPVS
Method: RNA Bind-n-Seq
Form: RNA
Matrix: in vitro
Concentration: not given
Setting: RNA with constant flanks, human-mouse chimeric sites, ends assumed
Reference: input RNA pool
Direction: higher = stronger binding
All sequences stand within: GGGAGUUCUACAGUCCGACGAUC … CAACAGAGGAUUGAGCAUCA
| Strand | bound/input enrichment [ratio] |
| --- | --- |
| UUGCUACUGACUCCCUGGGUCAAGUUCCUGUGGGAGUCAUACAGGCAGUGUUUGGACCUUCUUCGAAACAAUUCUAGAGUAGAGCGCCUUUACCAUGAUAUCGCCCAGCAAGCUUUCAAA | 0.172 |
| CACAGAGGAGAUCUGCUGUUCCUCACAAAUUUCCGGGAGGACCCCAUCAGAGCUGGUGAAAUAGUUGUUUUUAAGGUUGAAGGAAGAGACAUUCCGAUAGUUCACAGAGUAAUCAAGGUU | 4.11 |
| UCUUUAAAUGCACUACAACCUUUUCUGCAUAUUAUAGCCCUCCCAUAGAUCCACGUUCAAGCUCAAAGAGCAAAGGCUUUGCACGGAGCUCAAACAUCUGAUGAAGAAAGAUUUCUGAGA | 0.761 |
| UUACCCGAAAAUGAAGAUGAGCUGGAGAGCACCAACAGACGCUAUACCAAGAGGGACUGCAGCACUUUCCUCAGAACUAGUGAGACGGGCAUCGUGGACCAGGUCAUGGUCACUCUCAAC | 0.28 |
| UUUGUAUUUAUGCUAAGCACACGUGCUGGUGGUCUGGGCAUCAAUCUUGCAACUGCUGAUGUAGUCAUUUUAUAUGAUUCUGAUUGGAAUCCGCAAGUAGAUCUUCAGGCUAUGGACCGU | 0.252 |
| UAAGUCCUGUGCCAGCAAUUUAUCCCAAAAGUUUUAAAUUCUGGACCAAUAGUGUUUGUUUCCUGAUUAUUGUAUCCAAUACUUUGCCUAGUAUGUAACUCAUGCUUACUGAUAAUAAAA | 1.15 |

Other studies, line by line
| Molecule | target | test | system | setting | how to read | quantity | value |
| --- | --- | --- | --- | --- | --- | --- | --- |
| PhoQ, residues 284 288 289 292 302 303 SCEHLI | PhoP, residues 12 14 15 18 19 VHTVL (Escherichia coli, UniProt P23836) | Sort-seq, item: YFP reporter | E. coli | PhoQ-PhoP variant library, together with: 10 µM Mg2+ | reference: high Mg2+ state, higher = stronger signaling | fold induction | 7.15 |

Excerpt of the above (sample 2):
| Strand | fitted relative affinity |
| --- | --- |
| GTGTTTTGCCCTATTTAAGAGTGCTAG | 1.28 z-score |
| TTAAATTTCGGGACTGGATTAGTGCTA | 1.33 z-score |
| TTAGGTCTCCTTTTCCTTTCGTGCTAG | 5.4 z-score |
